{"data": "Measurements from different studies", "note": "A part holds a random share of what one study measured. Positions count from the first letter of the parent shown."}
{"data": "Set 1", "target": "CCNB3, cyclin fold, Cln2 fusion (human)", "technique": "yeast growth competition, sequencing", "medium": "yeast", "notes": "weak parent motif", "relative to": "not given", "direction": "higher = stronger binding", "parent": "MICAL3 docking peptide (human); LQLRRQLSFSEDS"}
{"Change": "LQLYRQLSFSEDS [R4Y]", "normalised enrichment score": 0.0101}
{"Change": "LQLRRQLSFSEQS [D12Q]", "normalised enrichment score": 0.172}
{"Change": "LQLMRQLSFSEDS [R4M]", "normalised enrichment score": 0.0976}
{"Change": "LQCRRQLSFSEDS [L3C]", "normalised enrichment score": 1.01}
{"Change": "LQLRRELSFSEDS [Q6E]", "normalised enrichment score": 0.0657}
{"Change": "LQLREQLSFSEDS [R5E]", "normalised enrichment score": 0.16}
{"Change": "LQLRRQLSFVEDS [S10V]", "normalised enrichment score": -0.0872}
{"Change": "LQLVRQLSFSEDS [R4V]", "normalised enrichment score": -0.0309}
{"Change": "LQLRRQLSYSEDS [F9Y]", "normalised enrichment score": -0.19}
{"Change": "LQLRTQLSFSEDS [R5T]", "normalised enrichment score": -0.0565}
{"Change": "LQLRRQLSFAEDS [S10A]", "normalised enrichment score": 0.00468}
{"Change": "LQLRRQLSKSEDS [F9K]", "normalised enrichment score": 0.148}
{"Change": "LQLRRQYSFSEDS [L7Y]", "normalised enrichment score": -0.0884}
{"Change": "LQLRRQMSFSEDS [L7M]", "normalised enrichment score": 0.177}
{"Change": "LQLRRQLSESEDS [F9E]", "normalised enrichment score": -0.223}
{"Change": "LDLRRQLSFSEDS [Q2D]", "normalised enrichment score": 0.185}
{"Change": "LQYRRQLSFSEDS [L3Y]", "normalised enrichment score": 0.0604}
{"Change": "LFLRRQLSFSEDS [Q2F]", "normalised enrichment score": 0.249}
{"Change": "LQLRRQLSFTEDS [S10T]", "normalised enrichment score": 0.221}
{"data": "Set 2", "target": "Interferon regulatory factor 5, full length, phosphomimetic (IRF5, Homo sapiens, UniProt Q13568-2, residues 1-514, K96S/S451D/S453D/S456D/S462D)", "technique": "protein-binding microarray", "form": "double-stranded DNA, one strand shown", "medium": "in vitro", "tested at": "250 nM", "notes": "60-bp whole probe", "together with": "salmon DNA 0.4 mg/ml", "relative to": "random background probes", "direction": "higher = stronger binding", "all sequences stand within": "GCCTAGCAC … GTCTTGATTCGCTTGACGCTGCTG"}
{"Strand": "GTCGATCTCAGACTGGAGACGTGCTAG", "log fluorescence": "-0.313 z-score"}
{"Strand": "GACGATAACGGGTATCGAGACGTGCTA", "log fluorescence": "1.24 z-score"}
{"Strand": "TTAGGACTGGGTTTCGATTAGTGCTAG", "log fluorescence": "6.88 z-score"}
{"Strand": "CACGATCTCAGTCTCGAGACGTGCTAG", "log fluorescence": "-0.0729 z-score"}
{"Strand": "GACGAACAGGGGTATCGAGACGTGCTA", "log fluorescence": "0.12 z-score"}
{"Strand": "GACGATTTCGGTTTCGAGACGTGCTAG", "log fluorescence": "9.01 z-score"}
{"Strand": "TTAGGTCTGGGTTTCGGTTAGTGCTAG", "log fluorescence": "7.74 z-score"}
{"Strand": "CCGAGAAACAGTAACCCTCTGTGCTAG", "log fluorescence": "0.0165 z-score"}
{"Strand": "GACGATTTCGGGACTGAAGACGTGCTA", "log fluorescence": "2.15 z-score"}
{"Strand": "AAAACTAGGGCATTTAGAAAAGTGCTA", "log fluorescence": "0.0734 z-score"}
{"Strand": "TCAGATTTCGGGTTTCGATTAGTGCTA", "log fluorescence": "8.47 z-score"}
{"Strand": "GACGGTTTCGACTATCGGGTCGTGCTA", "log fluorescence": "7.78 z-score"}
{"Strand": "ATTTATTTACTCTCTACATGGGTGCTA", "log fluorescence": "0.916 z-score"}
{"Strand": "CTAGGTATCGGGTATCGGTTAGTGCTA", "log fluorescence": "6.48 z-score"}
{"Strand": "GACGGACTGGGGTTTCTGGACGTGCTA", "log fluorescence": "-0.464 z-score"}
{"Strand": "TCATCCCTAATTCTGATACTGTGCTAG", "log fluorescence": "0.257 z-score"}
{"Strand": "GACGGTTTCGACTATAGGGACGTGCTA", "log fluorescence": "5.86 z-score"}
{"Strand": "AACGAACTGGGGTTTCGAGACGTGCTA", "log fluorescence": "1.33 z-score"}
{"Strand": "TTAGGACTGGGGTTTCGGTTGGTGCTA", "log fluorescence": "5.68 z-score"}
{"Strand": "TCATCATTGTTTTTCATACTGTGCTAG", "log fluorescence": "1.43 z-score"}
{"Strand": "TTGCTTCCCAATTCTCTTTTCGTGCTA", "log fluorescence": "1.18 z-score"}
{"Strand": "CCTAGTTGTACTTTCTATCTGTGCTAG", "log fluorescence": "3.03 z-score"}
{"Strand": "TTACGACTGCTTCTCCTTTAGTGCTAG", "log fluorescence": "0.676 z-score"}
{"Strand": "GACTATATCGGGACTGGAGACGTGCTA", "log fluorescence": "0.731 z-score"}
{"Strand": "TGAGTAATTACATAATTACGGTGCTAG", "log fluorescence": "0.456 z-score"}
{"data": "Set 3", "target": "Histone acetyltransferase KAT6A, winged helix 1, GST fusion (KAT6A, Homo sapiens, UniProt Q92794, residues 1-85)", "technique": "protein binding microarray", "form": "double-stranded DNA, one strand shown", "medium": "in vitro", "tested at": "not given", "notes": "8-mer, flanks averaged, mean of 2 arrays, mostly near background", "relative to": "not given", "direction": "higher = stronger binding", "Construct (chain)": "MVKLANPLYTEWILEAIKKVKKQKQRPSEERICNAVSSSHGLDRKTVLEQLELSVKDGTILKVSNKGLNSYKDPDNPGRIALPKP"}
{"Strand": "AATGCGCA", "E-score": 0.298}
{"Strand": "ATACAGGA", "E-score": 0.11}
{"Strand": "GGAGTAAA", "E-score": -0.113}
{"Strand": "CTCAACTC", "E-score": -0.352}
{"Strand": "AGATGATA", "E-score": -0.0986}
{"Strand": "TCCTTGCA", "E-score": -0.00298}
{"Strand": "GCCCCTTA", "E-score": 0.0545}
{"Strand": "CGAGCTAC", "E-score": -0.0049}
{"Strand": "ATAGTATC", "E-score": 0.0481}
{"Strand": "ACACTCGG", "E-score": 0.152}
{"Strand": "AAGGAAGC", "E-score": -0.0904}
{"Strand": "ATTACCCC", "E-score": 0.00967}
{"Strand": "ACCATATG", "E-score": -0.208}
{"Strand": "ACTCAGAG", "E-score": -0.0591}
{"Strand": "TGTTTCAA", "E-score": -0.119}
{"Strand": "CTACATAG", "E-score": -0.275}
{"Strand": "CCAGCATA", "E-score": -0.147}
{"Strand": "ACCGGCCA", "E-score": 0.0877}
{"Strand": "AAACCCTA", "E-score": -0.26}
{"Strand": "AGGTGTCC", "E-score": 0.00246}
{"Strand": "CAGATATA", "E-score": -0.165}
{"data": "Set 4", "target": "ABI1, truncated, D143A, DHFR fusion (Arabidopsis thaliana)", "technique": "DHFR PCA, deep sequencing", "medium": "yeast", "notes": "methotrexate growth selection, single substitutions", "together with": "(+)-ABA 0 µM", "relative to": "wild-type fitted maximum", "direction": "higher = stronger binding", "parent": "PYL1, truncated, DHFR fusion (Arabidopsis thaliana); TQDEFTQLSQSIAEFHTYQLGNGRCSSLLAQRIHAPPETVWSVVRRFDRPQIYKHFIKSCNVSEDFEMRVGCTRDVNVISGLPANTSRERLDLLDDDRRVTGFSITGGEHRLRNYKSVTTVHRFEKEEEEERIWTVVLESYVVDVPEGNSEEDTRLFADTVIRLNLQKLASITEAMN; partner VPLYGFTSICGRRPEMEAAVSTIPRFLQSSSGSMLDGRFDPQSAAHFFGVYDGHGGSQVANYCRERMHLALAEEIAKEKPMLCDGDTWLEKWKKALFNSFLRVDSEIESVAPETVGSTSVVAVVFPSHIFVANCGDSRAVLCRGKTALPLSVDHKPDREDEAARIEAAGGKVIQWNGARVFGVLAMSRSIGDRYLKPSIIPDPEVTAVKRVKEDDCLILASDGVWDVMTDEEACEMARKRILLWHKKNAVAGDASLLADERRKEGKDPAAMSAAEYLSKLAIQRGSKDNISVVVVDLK"}
{"Change": "T1Q", "relative binding score [%]": 25.5}
{"Change": "F5L", "relative binding score [%]": 40.4}
{"Change": "R163H", "relative binding score [%]": -2.21}
{"Change": "F15G", "relative binding score [%]": 1.88}
{"Change": "R98M", "relative binding score [%]": 4.72}
{"Change": "E147K", "relative binding score [%]": 3.93}
{"Change": "R111F", "relative binding score [%]": -1.92}
{"Change": "G102W", "relative binding score [%]": 6.97}
{"Change": "T101K", "relative binding score [%]": 0.753}
{"Change": "N114E", "relative binding score [%]": -2.99}
{"Change": "G21L", "relative binding score [%]": 6.12}
{"Change": "A13T", "relative binding score [%]": 12.4}
{"Change": "R74D", "relative binding score [%]": -0.23}
{"Change": "Q10V", "relative binding score [%]": 1.63}
{"Change": "K58S", "relative binding score [%]": 8.4}
{"Change": "Q19E", "relative binding score [%]": 50.7}
{"Change": "H34L", "relative binding score [%]": 25}
{"note": "Repeated from above (set 2):"}
{"Strand": "GACGAACAGGGGTATCGAGACGTGCTA", "log fluorescence": "0.12 z-score"}
{"Strand": "CTAGGTATCGGGTATCGGTTAGTGCTA", "log fluorescence": "6.48 z-score"}
{"Strand": "CACGATCTCAGTCTCGAGACGTGCTAG", "log fluorescence": "-0.0729 z-score"}
{"Strand": "GACGATTTCGGTTTCGAGACGTGCTAG", "log fluorescence": "9.01 z-score"}
{"Strand": "GACGGTTTCGACTATCGGGTCGTGCTA", "log fluorescence": "7.78 z-score"}
{"Strand": "TTACGACTGCTTCTCCTTTAGTGCTAG", "log fluorescence": "0.676 z-score"}
{"Strand": "TCATCATTGTTTTTCATACTGTGCTAG", "log fluorescence": "1.43 z-score"}
{"Strand": "AAAACTAGGGCATTTAGAAAAGTGCTA", "log fluorescence": "0.0734 z-score"}
{"Strand": "TTAGGACTGGGTTTCGATTAGTGCTAG", "log fluorescence": "6.88 z-score"}
{"Strand": "AACGAACTGGGGTTTCGAGACGTGCTA", "log fluorescence": "1.33 z-score"}
{"Strand": "TTGCTTCCCAATTCTCTTTTCGTGCTA", "log fluorescence": "1.18 z-score"}
{"Strand": "TGAGTAATTACATAATTACGGTGCTAG", "log fluorescence": "0.456 z-score"}
{"Strand": "CCGAGAAACAGTAACCCTCTGTGCTAG", "log fluorescence": "0.0165 z-score"}
